Results collected from several papers.
Every numbered part comes from another study and shows a few of its results, in no order.
UniProt O14920, sequence (whole entry, looked up): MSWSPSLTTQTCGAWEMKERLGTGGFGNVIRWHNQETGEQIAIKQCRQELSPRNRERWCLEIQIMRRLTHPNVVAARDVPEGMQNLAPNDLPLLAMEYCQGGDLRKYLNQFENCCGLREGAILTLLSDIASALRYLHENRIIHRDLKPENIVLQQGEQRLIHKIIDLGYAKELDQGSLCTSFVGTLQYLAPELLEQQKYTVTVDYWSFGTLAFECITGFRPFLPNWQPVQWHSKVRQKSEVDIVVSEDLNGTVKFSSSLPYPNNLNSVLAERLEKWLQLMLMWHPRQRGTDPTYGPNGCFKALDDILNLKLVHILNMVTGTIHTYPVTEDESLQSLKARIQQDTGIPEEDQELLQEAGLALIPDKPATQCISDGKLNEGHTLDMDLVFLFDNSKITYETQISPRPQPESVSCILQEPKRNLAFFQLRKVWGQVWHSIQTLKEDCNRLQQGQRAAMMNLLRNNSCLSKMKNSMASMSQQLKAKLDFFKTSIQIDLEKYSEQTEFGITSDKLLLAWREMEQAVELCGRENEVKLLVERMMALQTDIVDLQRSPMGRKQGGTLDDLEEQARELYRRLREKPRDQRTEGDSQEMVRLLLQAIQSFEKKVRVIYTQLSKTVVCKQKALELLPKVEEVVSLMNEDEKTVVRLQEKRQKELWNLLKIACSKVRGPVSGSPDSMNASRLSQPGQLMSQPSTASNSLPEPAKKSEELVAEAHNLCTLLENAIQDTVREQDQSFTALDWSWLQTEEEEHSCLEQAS
UniProt Q96RR4, sequence (whole entry, looked up): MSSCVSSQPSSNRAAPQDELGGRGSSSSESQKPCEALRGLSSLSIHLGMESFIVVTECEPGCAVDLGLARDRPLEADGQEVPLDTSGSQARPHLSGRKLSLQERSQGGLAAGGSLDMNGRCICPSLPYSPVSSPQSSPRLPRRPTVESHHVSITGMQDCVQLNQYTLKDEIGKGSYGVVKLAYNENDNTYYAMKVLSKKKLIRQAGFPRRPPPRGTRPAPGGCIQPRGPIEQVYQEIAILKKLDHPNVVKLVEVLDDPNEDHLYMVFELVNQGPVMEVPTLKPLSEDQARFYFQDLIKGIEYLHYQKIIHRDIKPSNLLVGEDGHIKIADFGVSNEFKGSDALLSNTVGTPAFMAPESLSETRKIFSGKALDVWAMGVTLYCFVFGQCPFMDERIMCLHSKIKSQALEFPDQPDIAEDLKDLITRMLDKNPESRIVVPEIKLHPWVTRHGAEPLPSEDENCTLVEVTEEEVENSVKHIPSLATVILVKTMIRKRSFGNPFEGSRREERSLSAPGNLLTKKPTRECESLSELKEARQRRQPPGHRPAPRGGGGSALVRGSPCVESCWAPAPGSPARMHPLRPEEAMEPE
UniProt Q99759, sequence (whole entry, looked up): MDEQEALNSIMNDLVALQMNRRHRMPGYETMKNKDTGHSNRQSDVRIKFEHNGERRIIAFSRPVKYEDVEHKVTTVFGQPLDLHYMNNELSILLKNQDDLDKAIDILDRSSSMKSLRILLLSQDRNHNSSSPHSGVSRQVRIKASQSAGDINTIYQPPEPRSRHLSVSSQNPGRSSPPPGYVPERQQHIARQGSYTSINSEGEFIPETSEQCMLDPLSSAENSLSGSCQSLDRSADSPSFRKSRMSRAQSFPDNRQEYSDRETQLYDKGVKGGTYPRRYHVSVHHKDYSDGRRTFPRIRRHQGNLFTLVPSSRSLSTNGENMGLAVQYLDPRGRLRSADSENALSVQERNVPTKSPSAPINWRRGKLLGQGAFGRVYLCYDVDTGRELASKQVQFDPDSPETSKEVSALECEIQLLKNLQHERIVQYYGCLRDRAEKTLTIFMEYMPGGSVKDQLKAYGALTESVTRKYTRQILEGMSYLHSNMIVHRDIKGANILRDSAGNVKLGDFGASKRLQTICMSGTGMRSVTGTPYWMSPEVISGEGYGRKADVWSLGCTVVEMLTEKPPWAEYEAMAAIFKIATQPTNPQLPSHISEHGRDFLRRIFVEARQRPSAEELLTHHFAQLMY
UniProt P37173, sequence (whole entry, looked up): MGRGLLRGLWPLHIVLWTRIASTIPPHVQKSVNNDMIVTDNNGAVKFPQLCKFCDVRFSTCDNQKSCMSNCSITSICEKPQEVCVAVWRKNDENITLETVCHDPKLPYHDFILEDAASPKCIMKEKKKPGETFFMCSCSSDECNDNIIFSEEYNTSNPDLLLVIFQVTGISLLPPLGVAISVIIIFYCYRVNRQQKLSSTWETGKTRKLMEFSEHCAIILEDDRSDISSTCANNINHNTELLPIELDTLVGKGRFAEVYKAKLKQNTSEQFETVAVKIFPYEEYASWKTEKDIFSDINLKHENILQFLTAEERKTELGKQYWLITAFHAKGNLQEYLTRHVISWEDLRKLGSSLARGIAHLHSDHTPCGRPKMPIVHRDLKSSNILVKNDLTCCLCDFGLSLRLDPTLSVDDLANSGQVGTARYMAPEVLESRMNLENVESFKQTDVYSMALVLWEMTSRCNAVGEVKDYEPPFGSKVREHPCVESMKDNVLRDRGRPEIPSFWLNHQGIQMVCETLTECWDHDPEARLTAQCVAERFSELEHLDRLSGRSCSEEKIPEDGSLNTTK
UniProt O95747, sequence (whole entry, looked up): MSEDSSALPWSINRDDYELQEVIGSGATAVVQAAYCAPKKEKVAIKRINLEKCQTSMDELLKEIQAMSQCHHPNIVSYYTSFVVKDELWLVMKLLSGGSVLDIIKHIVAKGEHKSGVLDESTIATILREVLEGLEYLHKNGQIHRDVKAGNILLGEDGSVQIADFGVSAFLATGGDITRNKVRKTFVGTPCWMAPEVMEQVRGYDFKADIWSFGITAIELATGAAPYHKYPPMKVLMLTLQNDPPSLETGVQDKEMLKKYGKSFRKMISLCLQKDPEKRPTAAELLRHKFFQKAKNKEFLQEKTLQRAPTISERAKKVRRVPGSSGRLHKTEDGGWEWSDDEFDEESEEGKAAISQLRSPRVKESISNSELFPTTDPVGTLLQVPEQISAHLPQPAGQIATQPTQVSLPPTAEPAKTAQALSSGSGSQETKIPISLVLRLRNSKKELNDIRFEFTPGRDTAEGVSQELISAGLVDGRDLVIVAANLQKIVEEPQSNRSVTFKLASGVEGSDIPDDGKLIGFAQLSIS
UniProt O95819, sequence (whole entry, looked up): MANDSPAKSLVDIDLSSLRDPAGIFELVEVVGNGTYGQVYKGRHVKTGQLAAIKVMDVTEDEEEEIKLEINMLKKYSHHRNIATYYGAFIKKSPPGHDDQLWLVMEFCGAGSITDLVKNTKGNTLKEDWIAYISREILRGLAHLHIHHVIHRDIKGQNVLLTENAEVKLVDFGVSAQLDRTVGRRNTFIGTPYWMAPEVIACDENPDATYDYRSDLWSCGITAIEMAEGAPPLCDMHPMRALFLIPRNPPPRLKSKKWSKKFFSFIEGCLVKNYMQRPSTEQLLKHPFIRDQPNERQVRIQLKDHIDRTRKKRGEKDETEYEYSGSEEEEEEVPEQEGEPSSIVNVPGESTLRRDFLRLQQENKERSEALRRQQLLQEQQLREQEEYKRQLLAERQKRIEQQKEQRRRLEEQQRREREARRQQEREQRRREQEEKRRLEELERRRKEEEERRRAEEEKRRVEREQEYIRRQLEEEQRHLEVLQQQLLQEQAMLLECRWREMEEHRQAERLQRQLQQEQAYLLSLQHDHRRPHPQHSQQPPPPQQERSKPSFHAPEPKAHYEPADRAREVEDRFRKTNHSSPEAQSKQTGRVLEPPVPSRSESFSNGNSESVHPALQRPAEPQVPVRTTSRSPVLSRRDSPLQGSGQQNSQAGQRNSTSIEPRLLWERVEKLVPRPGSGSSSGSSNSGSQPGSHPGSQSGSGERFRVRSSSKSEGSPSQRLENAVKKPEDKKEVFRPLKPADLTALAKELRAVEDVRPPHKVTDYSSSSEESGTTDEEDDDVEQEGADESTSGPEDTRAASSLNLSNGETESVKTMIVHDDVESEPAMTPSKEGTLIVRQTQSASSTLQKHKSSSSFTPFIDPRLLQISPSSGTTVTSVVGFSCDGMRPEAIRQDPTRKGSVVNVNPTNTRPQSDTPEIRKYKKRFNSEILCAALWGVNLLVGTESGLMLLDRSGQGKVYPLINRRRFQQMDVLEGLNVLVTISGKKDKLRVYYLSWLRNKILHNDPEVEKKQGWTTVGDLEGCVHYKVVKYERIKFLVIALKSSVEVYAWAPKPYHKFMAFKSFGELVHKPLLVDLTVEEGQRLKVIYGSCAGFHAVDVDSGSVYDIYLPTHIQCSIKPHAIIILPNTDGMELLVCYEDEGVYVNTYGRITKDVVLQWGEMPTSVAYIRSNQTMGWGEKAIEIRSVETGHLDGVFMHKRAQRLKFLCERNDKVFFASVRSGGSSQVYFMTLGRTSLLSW
UniProt P51955, sequence (whole entry, looked up): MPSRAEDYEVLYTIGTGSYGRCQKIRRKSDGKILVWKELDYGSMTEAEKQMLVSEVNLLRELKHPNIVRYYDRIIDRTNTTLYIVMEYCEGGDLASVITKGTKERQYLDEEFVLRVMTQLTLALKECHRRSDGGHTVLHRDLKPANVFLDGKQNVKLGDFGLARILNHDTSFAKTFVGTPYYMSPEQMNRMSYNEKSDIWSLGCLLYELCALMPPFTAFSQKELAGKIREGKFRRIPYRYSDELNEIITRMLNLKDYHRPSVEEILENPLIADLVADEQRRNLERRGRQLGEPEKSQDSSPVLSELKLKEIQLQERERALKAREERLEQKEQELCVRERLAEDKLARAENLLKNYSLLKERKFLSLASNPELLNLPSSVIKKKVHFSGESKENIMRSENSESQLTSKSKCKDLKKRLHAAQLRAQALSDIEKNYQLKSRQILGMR
UniProt P11802, sequence (whole entry, looked up): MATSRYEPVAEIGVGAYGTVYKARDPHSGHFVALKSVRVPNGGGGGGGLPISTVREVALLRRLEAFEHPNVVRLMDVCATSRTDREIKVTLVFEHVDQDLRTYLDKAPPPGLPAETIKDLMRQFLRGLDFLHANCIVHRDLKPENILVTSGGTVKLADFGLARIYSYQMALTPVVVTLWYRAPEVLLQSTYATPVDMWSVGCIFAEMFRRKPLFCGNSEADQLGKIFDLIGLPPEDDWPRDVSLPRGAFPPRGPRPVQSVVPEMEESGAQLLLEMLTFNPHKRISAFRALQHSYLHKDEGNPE

Sample 1
Compound: Cc1ccc(NC(=O)c2ccnc(C(F)(F)F)c2)cc1-c1cc(OCCO)nc(N2CCOCC2)c1
Effect on: binding
Tested at: 1 µM
| target | technique | remaining binding [%] |
| --- | --- | --- |
| Mitogen-activated protein kinase kinase kinase 19 (MAP3K19, Homo sapiens, UniProt Q56UN5) | competition with immobilised ligand | 81 |
| Mitogen-activated protein kinase 12 (MAPK12, Homo sapiens, UniProt P53778) | competition with immobilised ligand | 96 |
| Serine/threonine-protein kinase 32A (STK32A, Homo sapiens, UniProt Q8WU08) |  | 90 |
| Serine/threonine-protein kinase PAK 2 (PAK2, Homo sapiens, UniProt Q13177) |  | 100 |
| Mitogen-activated protein kinase 13 (MAPK13, Homo sapiens, UniProt O15264) | competition with immobilised ligand | 93 |
| Serine/threonine-protein kinase D3 (PRKD3, Homo sapiens, UniProt O94806) |  | 100 |
| Serine/threonine-protein kinase Sgk3 (SGK3, Homo sapiens, UniProt Q96BR1) |  | 100 |
| Serine/threonine-protein kinase 17B (STK17B, Homo sapiens, UniProt O94768) |  | 100 |
| Angiopoietin-1 receptor (TEK, Homo sapiens, UniProt Q02763) | competition with immobilised ligand | 86 |
| Mitogen-activated protein kinase 1 (MAPK1, Homo sapiens, UniProt P28482) |  | 86 |
| Serine/threonine-protein kinase 38-like (STK38L, Homo sapiens, UniProt Q9Y2H1) |  | 96 |

Sample 2
SMILES: C[C@@]1(Cc2ccc(C#N)cc2)C(=O)N(c2cc(Cl)cc(Cl)c2)c2ncc(C(=O)NC3(c4nc(C5CCC5)no4)CC3)n21
Effect on: cell-free assay
Technique: competition with immobilised ligand
Tested at: 1 µM
| target | remaining binding [%] |
| --- | --- |
| Tyrosine-protein kinase ABL1, non-phosphorylated (ABL1, Homo sapiens, UniProt P00519, Q252H) | 89 |
| Tyrosine-protein kinase JAK1, JH1 (JAK1, Homo sapiens, UniProt P23458) | 100 |
| Ephrin type-B receptor 4 (EPHB4, Homo sapiens, UniProt P54760) | 100 |
| Non-receptor tyrosine-protein kinase TYK2, JH2 (TYK2, Homo sapiens, UniProt P29597) | 100 |
| MAP/microtubule affinity-regulating kinase 3 (MARK3, Homo sapiens, UniProt P27448) | 100 |
| Mitogen-activated protein kinase kinase kinase kinase 4 (MAP4K4, Homo sapiens, UniProt O95819) | 91 |
| Serine/threonine-protein kinase 25 (STK25, Homo sapiens, UniProt O00506) | 100 |
| Serine/threonine-protein kinase NIM1 (NIM1K, Homo sapiens, UniProt Q8IY84) | 100 |
| Proto-oncogene tyrosine-protein kinase receptor Ret (RET, Homo sapiens, UniProt P07949) | 100 |
| Mitogen-activated protein kinase kinase kinase 13 (MAP3K13, Homo sapiens, UniProt O43283) | 100 |
| Tyrosine-protein kinase Lck (LCK, Homo sapiens, UniProt P06239) | 100 |
| Phosphatidylinositol 4,5-bisphosphate 3-kinase catalytic subunit alpha isoform (PIK3CA, Homo sapiens, UniProt P42336) | 87 |
| Calcium/calmodulin-dependent protein kinase kinase 1 (CAMKK1, Homo sapiens, UniProt Q8N5S9) | 100 |
| Serine/threonine-protein kinase 33 (STK33, Homo sapiens, UniProt Q9BYT3) | 100 |

Sample 3
Structure (SMILES): Cc1nc(Nc2ncc(C(=O)Nc3c(C)cccc3Cl)s2)cc(N2CCN(CCO)CC2)n1
Action: inhibitor
| target | tested at | inhibition |
| --- | --- | --- |
| Protein-tyrosine kinase 2-beta (PTK2B, Homo sapiens, UniProt Q14289) | 10 µM | < 50% |
| Aurora kinase A (AURKA, Homo sapiens, UniProt O14965) | 1 µM | < 50% |
| Serine/threonine-protein kinase MARK2 (MARK2, Homo sapiens, UniProt Q7KZI7) | 10 µM | < 50% |
| 3-phosphoinositide-dependent protein kinase 1 (PDPK1, Homo sapiens, UniProt O15530) | 1 µM | < 50% |
| Casein kinase I isoform epsilon (CSNK1E, Homo sapiens, UniProt P49674) | 10 µM | 78% |
| Phosphatidylinositol 5-phosphate 4-kinase type-2 beta (PIP4K2B, Homo sapiens, UniProt P78356) | 10 µM | < 50% |
| MAP kinase-activated protein kinase 2 (MAPKAPK2, Homo sapiens, UniProt P49137) | 10 µM | < 50% |
| Tyrosine-protein kinase JAK3 (JAK3, Homo sapiens, UniProt P52333) | 1 µM | 81% |
| Cyclin-dependent kinase 16 (CDK16, Homo sapiens, UniProt Q00536) | 10 µM | < 50% |
| Protein kinase C delta type (PRKCD, Homo sapiens, UniProt Q05655) | 10 µM | < 50% |
| Inhibitor of nuclear factor kappa-B kinase subunit beta (IKBKB, Homo sapiens, UniProt O14920) | 10 µM | < 50% |
| Testis-specific serine/threonine-protein kinase 1 (TSSK1B, Homo sapiens, UniProt Q9BXA7) | 1 µM | < 50% |
| Focal adhesion kinase 1 (PTK2, Homo sapiens, UniProt Q05397) | 10 µM | < 50% |
| Cyclin-dependent kinase 7 (CDK7, Homo sapiens, UniProt P50613) | 10 µM | < 50% |
| Bone morphogenetic protein receptor type-2 (BMPR2, Homo sapiens, UniProt Q13873) | 10 µM | < 50% |

Sample 4
Compound: Cn1cc(/C=C2\C(=O)Nc3ccc(S(N)(=O)=O)cc32)c2ccccc21
Effect on: enzyme activity
Action: inhibitor
Tested at: 0.5 µM
Reference: control
| target | remaining activity [%] |
| --- | --- |
| Calcium/calmodulin-dependent protein kinase type II subunit delta (CAMK2D, Homo sapiens, UniProt Q13557) | 66.8 |
| G protein-coupled receptor kinase 3 (GRK3, Homo sapiens, UniProt P35626) | 111 |
| Death-associated protein kinase 1 (DAPK1, Homo sapiens, UniProt P53355) | 98.9 |
| Mitogen-activated protein kinase kinase kinase 3 (MAP3K3, Homo sapiens, UniProt Q99759) | 80.7 |
| cGMP-dependent protein kinase 1, isoform beta (PRKG1, Homo sapiens, UniProt Q13976) | 87.2 |
| Protein kinase C beta type, isoform beta-I (PRKCB, Homo sapiens, UniProt P05771) | 114 |
| Protein kinase C alpha type (PRKCA, Homo sapiens, UniProt P17252) | 123 |
| TGF-beta receptor type-1 (TGFBR1, Homo sapiens, UniProt P36897) | 97.8 |
| Mitogen-activated protein kinase 9 (MAPK9, Homo sapiens, UniProt P45984) | 93.8 |
| Calcium/calmodulin-dependent protein kinase kinase 2 (CAMKK2, Homo sapiens, UniProt Q96RR4) | 34.4 |
| Serine/threonine-protein kinase STK11 (STK11, Homo sapiens, UniProt Q15831) | 68.2 |
| Serine/threonine-protein kinase Chk2 (CHEK2, Homo sapiens, UniProt O96017) | 1.3 |
| Serine/threonine-protein kinase Nek2 (NEK2, Homo sapiens, UniProt P51955) | 89.1 |
| Serine/threonine-protein kinase OSR1 (OXSR1, Homo sapiens, UniProt O95747) | 93.7 |
| Tyrosine-protein kinase Lyn, isoform B (LYN, Homo sapiens, UniProt P07948) | 75 |
| Inhibitor of nuclear factor kappa-B kinase subunit epsilon (IKBKE, Homo sapiens, UniProt Q14164) | 21.9 |
| cAMP-dependent protein kinase catalytic subunit alpha (PRKACA, Homo sapiens, UniProt P17612) | 104 |
| Cyclin-dependent kinase 5, with p25 (CDK5, Homo sapiens, UniProt Q00535) | 58 |
| Serine/threonine-protein kinase 10 (STK10, Homo sapiens, UniProt O94804) | 17 |
| Inhibitor of nuclear factor kappa-B kinase subunit beta (IKBKB, Homo sapiens, UniProt O14920) | 101 |
| Cyclin-dependent kinase 4, with cyclin D1 (CDK4, Homo sapiens, UniProt P11802) | 106 |
| TGF-beta receptor type-2 (TGFBR2, Homo sapiens, UniProt P37173) | 101 |
| STE20/SPS1-related proline-alanine-rich protein kinase (STK39, Homo sapiens, UniProt Q9UEW8) | 79.3 |

Excerpt of the above (sample 4):
| target | remaining activity [%] |
| --- | --- |
| Death-associated protein kinase 1 (DAPK1, Homo sapiens, UniProt P53355) | 98.9 |
| Calcium/calmodulin-dependent protein kinase type II subunit delta (CAMK2D, Homo sapiens, UniProt Q13557) | 66.8 |
| Inhibitor of nuclear factor kappa-B kinase subunit epsilon (IKBKE, Homo sapiens, UniProt Q14164) | 21.9 |
| Calcium/calmodulin-dependent protein kinase kinase 2 (CAMKK2, Homo sapiens, UniProt Q96RR4) | 34.4 |
| Serine/threonine-protein kinase STK11 (STK11, Homo sapiens, UniProt Q15831) | 68.2 |
| Cyclin-dependent kinase 5, with p25 (CDK5, Homo sapiens, UniProt Q00535) | 58 |
| cGMP-dependent protein kinase 1, isoform beta (PRKG1, Homo sapiens, UniProt Q13976) | 87.2 |
| Tyrosine-protein kinase Lyn, isoform B (LYN, Homo sapiens, UniProt P07948) | 75 |
